Assay results gathered from unrelated publications.
Each numbered part is a random draw from the data of one study; scales do not carry over between parts. Substitutions count along the parent as printed.

Sample 1
Target: Histone acetyltransferase KAT6A, winged helix 2, GST fusion (KAT6A, Homo sapiens, UniProt Q92794, residues 85-181)
Technique: protein binding microarray
Form: double-stranded DNA, one strand shown
Matrix: in vitro
Tested at: not given
Notes: 8-mer, flanks averaged, mean of 2 arrays, mostly near background
Relative to: not given
Reading: higher = stronger binding
Construct (chain): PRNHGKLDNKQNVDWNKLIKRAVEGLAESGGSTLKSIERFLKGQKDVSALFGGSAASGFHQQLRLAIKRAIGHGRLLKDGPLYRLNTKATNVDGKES
Oligonucleotide	E-score
TCTTGACA	-0.0402
AATAGCTC	-0.308
CTAGATAG	-0.0333
ACACGACA	-0.0801
CGGAATCC	-0.209
AGGAGCCA	0.0583
CAACAATA	-0.0325
GATCTTGC	0.186
ACAAGTCG	-0.0472
CGCCGAAA	0.0744
AACATCTA	-0.238
CAGCGCTA	0.0681
TTTCCAAA	-0.0601
CTCCTACA	-0.169
CTGAACTC	-0.0206
ACCAAGTC	-0.0504
GCTCGCCC	0.189
CACTAACG	-0.0638
AGCCTGTA	-0.0665
TCACAAAA	0.0602
CCGAGTAA	-0.00197
CTCCAGTC	-0.0254
AGTTTGAC	0.0303
CAAGGTCA	0.0046
CTTGTTCC	0.0281

Sample 2
Organism: Saccharomyces cerevisiae
Read-out: binding
Technique: competitive growth deep sequencing
Form: peptide
Strain: cyclin D3-Cln2 fusion strain
Tested at: concentration not given
Notes: peptide tiling library
Reading: direction not given
Sequence	growth enrichment score
SPREGHMMDALYAQVK	0.778
YLYLLLTQSLWCRV	0.103
ELGMEHCEKFEISETS	0.347
PPTFLSTGEIHAFLSS	0.334
KVRRNLFNQELLSP	-0.911
NLEPNAEFDKRTEFIT	0.686
VSRNLRSSLKSSLHTL	-1.3
ISRLFPPRTPGWHQLQ	-0.619
EHCRVLFLDHVMYTIH	0.274
NRLLKLFTRCLTPLVP	-1.05
ATNSSHTDAHEILVSD	-0.232
AGSAKRRLFGEDPPKE	0.00694
GPVKLEFDVSDGAT	-0.0508

Sample 3
Target: RING finger protein unkempt homolog, zinc fingers 1-6, GST-SBP tag (UNK, Homo sapiens, UniProt Q9C0B0, residues 30-357)
Technique: RNA Bind-n-Seq
Form: RNA
Matrix: in vitro
Tested at: not given
Notes: RNA with constant flanks, human-mouse chimeric sites, ends assumed
Relative to: input RNA pool
Reading: higher = stronger binding
Constant ends, left off below: GGGAGUUCUACAGUCCGACGAUC … CAACAGAGGAUUGAGCAUCA
Construct (chain): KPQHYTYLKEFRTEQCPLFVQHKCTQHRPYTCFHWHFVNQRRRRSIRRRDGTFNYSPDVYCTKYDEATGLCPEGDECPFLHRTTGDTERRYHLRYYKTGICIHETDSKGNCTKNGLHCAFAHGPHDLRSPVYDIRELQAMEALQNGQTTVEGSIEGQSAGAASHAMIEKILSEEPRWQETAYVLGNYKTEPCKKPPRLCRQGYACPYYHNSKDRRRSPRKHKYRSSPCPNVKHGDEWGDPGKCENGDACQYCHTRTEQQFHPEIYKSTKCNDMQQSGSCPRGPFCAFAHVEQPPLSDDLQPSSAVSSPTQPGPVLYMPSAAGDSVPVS
Oligonucleotide	bound/input enrichment [ratio]
CAGCCUCAGAGCCCAGACUUCCUGGACAUUACCAACCCUAAAGCGGUAUUAGAAAAUGCACUUAGGAACUUCGCCUGUCUGACGACUGGAGAUGUGAUUGCUAUCAACUACAAUGAGAAG	0.587
UUACCCGAGAACGAGGAUGAAUUGGAGAGCACCAACAGGCGCUACACCAAGAGGGACUGCAGCACUUUCCUCAGAACUAGUGAGACGGGCAUCGUGGACCAGGUCAUGGUAACUCUCAAC	0.215
AUAGAUGAAAUUGAUGUGGACCAGGAAGGAAUUGCUGAAAUGAUGCUGGAUGAAAAUGCUAUUGCUCAGGUCCCACGCCCUGGAACGUCUUUGAAGCUCCCUGGCACUAACCAAACAGGA	0.23
GGUGGGGGGUUGUCAUUCGUUUGAGCUGCUGAUUUUCAUGAGUCGCCUUCAAAACUCUCGUGUAGGGUUGACAAUGUGGGGGGGUGGGGGAUCCAGCUAUUUUUUUUAUUUUCAAGUCCA	2.6
GUAGCUGGGACUACAGAAAUGCUGGUAAUUUCAGUCACUUGCUGAUGACUUCUGAUGUCCCAGCAAAUGUUGGCAUUGUUGACUGCUGAGAAGAUACACUCGCAAGGCCACGUCUAAGGU	0.091
AAAGAACUACUGAGGCAAGGCAGCAAAUUUAGGAGAGAUGUAUCAACAAUAUUGAUAGAGUUAGGAUUCCAAAUUAAAAAGAAAACUAAGACAUUAUACAUCAACAAAGCCAAUAUCUGG	5.09
ACACAAUAUGAGACCAACAGCAUGGACUUCAAAGUUGGGGCAGAUGGGACAGUCUUCGCCACCCGGGAGCUGCAGGUCCCCUCAGAGCAGGUGGCCUUCACGGUGACUGCAUGGGACAGC	0.227
AUCAAAUACUUUGGGGACAUCAUUAGUGUGGGACAGAGAUUGUUGCAAGGAGCUCGGAUCUUAGGGAUUCCAGUUAUCAUAACGGAACAAUACCCCAAAGGACUUGGCAGCACCGUUCAA	0.216
AUAGAUGAAAUUGAUGUAGAUCAGGAAGGAAUUGCUGAAAUGAUCCUGGAUGAAAAUGCUAUUGCUCAGGUCCCACGCCCUGGCACAUCUUUGAAGCUCCCUGGCACUAACCAAACAGGA	0.565
AAAGGCAAAAAGGGCAGCUGUGUCAUUUCAUAAGUAACUCUGGGGGAGGGAAAUUCUAACUAGUUUGUUAAUUUUCCCCCAAAUGAAGCCAAAGUGUGUGUUGAAGAACUGAGAAAAAAU	0.661
UAAAUUAGGGCUGCCGUUUUCUGUUUCUCCCUGGGCUGCAGACAGCUAGAAGAUUUUAUCUAGCUUAUACAAGGCUGCUGGAGCUUGCUCUUUUUUUCCACGAGGGUGUUUUUGGCUGCA	0.53

Sample 4
Target: ABI1, truncated, D143A, DHFR fusion (Arabidopsis thaliana)
Technique: DHFR PCA, deep sequencing
Matrix: yeast
Notes: methotrexate growth selection, single substitutions
Together with: (+)-ABA 710 µM
Relative to: wild-type fitted maximum
Reading: higher = stronger binding
Starting sequence: PYL1, truncated, DHFR fusion (Arabidopsis thaliana); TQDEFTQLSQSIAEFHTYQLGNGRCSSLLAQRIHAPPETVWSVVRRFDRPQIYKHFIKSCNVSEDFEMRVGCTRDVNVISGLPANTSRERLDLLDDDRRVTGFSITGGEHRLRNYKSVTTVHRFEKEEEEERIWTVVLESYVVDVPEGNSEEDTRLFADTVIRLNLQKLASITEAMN
Variant	relative binding score [%]
D75T	97.3
G21Q	97.6
F157H	28.3
E89N	-10.2
V161M	93.7
N149V	74.3
N114H	99.2
G107W	60.5
Y18E	96.2
N165Y	53.5
Y115A	-4.63
L138T	64
E128V	106
G107Y	76.1
L112G	-1.75
D48N	94.6
I57P	-9.97

Sample 5
Target: Ras GTPase-activating protein-binding protein 1, C-terminal RGG region (G3BP1, Homo sapiens, UniProt Q13283)
UniProt Q13283, sequence (whole entry, looked up): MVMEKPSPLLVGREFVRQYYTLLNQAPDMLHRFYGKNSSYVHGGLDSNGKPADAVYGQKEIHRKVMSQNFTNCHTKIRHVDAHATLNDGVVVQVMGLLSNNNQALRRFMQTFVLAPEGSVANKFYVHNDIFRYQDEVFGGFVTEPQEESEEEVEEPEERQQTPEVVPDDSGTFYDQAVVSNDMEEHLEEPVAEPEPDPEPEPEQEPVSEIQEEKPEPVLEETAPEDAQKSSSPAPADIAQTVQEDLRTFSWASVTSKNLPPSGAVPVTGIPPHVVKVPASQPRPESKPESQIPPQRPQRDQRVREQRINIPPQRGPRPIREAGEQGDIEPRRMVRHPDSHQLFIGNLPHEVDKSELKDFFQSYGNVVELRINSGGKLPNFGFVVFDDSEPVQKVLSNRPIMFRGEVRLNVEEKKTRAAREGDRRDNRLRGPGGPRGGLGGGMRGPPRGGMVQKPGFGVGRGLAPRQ
Technique: RNA Bind-n-Seq
Form: RNA
Matrix: in vitro
Tested at: 1 µM
Notes: whole 134-nt RNA, ends assumed
Together with: 150 mM KCl
Relative to: input library
Reading: higher = stronger binding
Constant ends, left off below: GGGAGUUCUACAGUCCGACGAUC … UGGAAUUCUCGGGUGUCAAGG
Oligonucleotide	log2 enrichment
CCUCAAGUCCUGUGCUACACAUCGUAUGUACCGAAUCGGAGGAAAAAGGUGGAAAGUAUUAUGUUACGCCGUUCGGAUCUGCACUUCCAG	-0.689
GUCCUGUGCUACACAUCGUAUGUACCGAAUCGGUUUUUUUGGAAAAAGGUUUUUUUGGAAAGUAUUAUGUUACGCCGUUCGGAUCUGCAC	-1.74
UGCAUCUGCACUGGAGAAAUGGAAGACAGCAAUCCGGGAAGCUCAGACUUUCUCCAGGAUGCACGUGCUGCUUGGGAUGCUUGAUGCCUG	-0.166
UGGGAGGUGGAUUUUGUUUAUUUUUUUAGCUCAUUUCCAGGGGUGGGAAUUUUUUUUUAAGAUGUGUCAUGAAUAAAGUUGUUUUUGAAA	3.39
ACCAUGCAGGUGGGCAUCUUUGGGAAGUGGGGCAACGGGGGGAUAGGGAGGGGGGUAACACUUUGGGAACAGGUGGUCCCAGGUCGUUUC	-1.14
UGGCGCCGUUCGACACCAGGCGGAUCCGCUCUGCAGCACGAACCCAUCUCCAGCCGCAGCCGCAGCCGCCGCCCGGGCCGAGGAGCAGCC	-0.876
GUCCUGUGCUACACAUCGUAUGUACCGAAUCGGGGUGGGGAAAAAAAGGGGUUUGGGGAAAGUAUUAUGUUACGCCGUUCGGAUCUGCAC	1.93
UAACUUUAGAGGAGGAUCUGAUUGAUAUGGCAGUGGACGUGGAUUUGGGGAUGGCUAUAAUGGGUAUGGAGGAGGACCUGGAGGUGGCAA	-1.04
AGUCCUGUGCUACACAUCGUAUGUACCGAAUCGGGGAAAGGGGAAAAAGGGGAGGGGAAAGUAUUAUGUUACGCCGUUCGGAUCUGCACU	3.07
ACCAUGCAGGUGGGCAUCUUUGGGAAGUGGGGCAAGGGGGGGAUAGGGAGGGGGGUAACACUUUGGGAACAGGUGGUCCCUGGUCGUUUC	1.36
ACUGGACCAGAUUGUUGAAAAAGGAAGACCAGCUCCUGGCUUCCAUCAUGGCGAUGGACCGGGAAAUGCAGUUCAAGAAAUCAUGAUUCC	-1.33
CAAGUCCUGUGCUACACAUCGUAUGUACCGAAUCGGGAGGGAAAGGGUUUUUGGGAAAGUAUUAUGUUACGCCGUUCGGAUCUGCACUUC	1.25
CACAGACAACACGCACCCACACAGACACAGAGGGAAGGGGUUGGGAUGGGGACAAAAUGCACAGCAGGGCGGGGUAGGACCCCAGCCCCU	-0.0367
CUGUGCUACACAUCGUAUGUACCGAAUCGGGCCCCCCCGGGGCCCCCCCGGCCCCCCCGGGAAAGUAUUAUGUUACGCCGUUCGGAUCUG	-1.69

Some of these lines once more (sample 3):
Oligonucleotide	bound/input enrichment [ratio]
GGUGGGGGGUUGUCAUUCGUUUGAGCUGCUGAUUUUCAUGAGUCGCCUUCAAAACUCUCGUGUAGGGUUGACAAUGUGGGGGGGUGGGGGAUCCAGCUAUUUUUUUUAUUUUCAAGUCCA	2.6
AAAGGCAAAAAGGGCAGCUGUGUCAUUUCAUAAGUAACUCUGGGGGAGGGAAAUUCUAACUAGUUUGUUAAUUUUCCCCCAAAUGAAGCCAAAGUGUGUGUUGAAGAACUGAGAAAAAAU	0.661
ACACAAUAUGAGACCAACAGCAUGGACUUCAAAGUUGGGGCAGAUGGGACAGUCUUCGCCACCCGGGAGCUGCAGGUCCCCUCAGAGCAGGUGGCCUUCACGGUGACUGCAUGGGACAGC	0.227
UAAAUUAGGGCUGCCGUUUUCUGUUUCUCCCUGGGCUGCAGACAGCUAGAAGAUUUUAUCUAGCUUAUACAAGGCUGCUGGAGCUUGCUCUUUUUUUCCACGAGGGUGUUUUUGGCUGCA	0.53
UUACCCGAGAACGAGGAUGAAUUGGAGAGCACCAACAGGCGCUACACCAAGAGGGACUGCAGCACUUUCCUCAGAACUAGUGAGACGGGCAUCGUGGACCAGGUCAUGGUAACUCUCAAC	0.215
